Assay results of several laboratories.
Compare with care: the assays were run in different laboratories. “And” joins repeats or separate records; there may be more than shown. ± marks the error that the study gave. Converted amounts (≈) assume the structure as drawn.
TDP1: Tyrosyl-DNA phosphodiesterase 1 (TDP1, Homo sapiens, UniProt Q9NUW8)
UniProt Q9NUW8, sequence (whole entry, looked up): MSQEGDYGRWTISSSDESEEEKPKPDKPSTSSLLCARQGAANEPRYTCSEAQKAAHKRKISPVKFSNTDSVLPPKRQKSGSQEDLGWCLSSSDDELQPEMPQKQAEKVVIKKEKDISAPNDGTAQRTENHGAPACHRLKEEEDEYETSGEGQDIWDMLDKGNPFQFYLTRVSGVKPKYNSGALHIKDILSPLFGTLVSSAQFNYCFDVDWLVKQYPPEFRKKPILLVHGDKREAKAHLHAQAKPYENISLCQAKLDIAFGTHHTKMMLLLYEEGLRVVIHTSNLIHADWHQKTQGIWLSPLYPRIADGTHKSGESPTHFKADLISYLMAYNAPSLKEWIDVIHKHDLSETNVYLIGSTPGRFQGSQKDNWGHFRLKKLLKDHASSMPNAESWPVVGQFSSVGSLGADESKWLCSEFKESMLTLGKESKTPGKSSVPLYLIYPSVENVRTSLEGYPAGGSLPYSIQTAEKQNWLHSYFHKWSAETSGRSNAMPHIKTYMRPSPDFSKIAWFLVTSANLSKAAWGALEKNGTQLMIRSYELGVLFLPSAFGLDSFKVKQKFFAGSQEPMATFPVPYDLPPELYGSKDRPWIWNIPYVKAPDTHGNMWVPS
Uncharacterized protein: Uncharacterized protein (Trypanosoma brucei brucei, UniProt Q386Q8)

`O=C(O)CCCOc1ccc([18F])cc1-c1cc(-c2ccccc2C(F)(F)F)n(-c2ccccc2)n1` has a tissue uptake of 0.36 ± 0.05 %ID/g (mouse, blood; intravenous, dose not given, 15 min).
`COC(=O)c1cc(O)c(=O)c(O)cc1C` has a CC50 of > 100 µM (HepDES19; cell growth or viability, MTS; 72 h).
The half-life of `O=C(NC1CCCCC1)c1ccnc(N2Cc3cn(Cc4ccc(F)cc4)nc3C2)n1` is reported as 0.0583 h (metabolic stability; rat, liver microsomes).
`CC(C)C[C@H](NC(=O)[C@H](CCCN)NC(=O)CNC(=O)[C@@H](NC(=O)[C@H](C)NC(=O)[C@@H]1CSCSC[C@H](NC(=O)CC[C@H](N)C(=O)O)C(=O)N[C@@H](CC(N)=O)C(=O)N[C@@H]([C@@H](C)O)C(=O)N[C@@H](C)C(=O)N[C@@H]([C@@H](C)O)C(=O)N1)[C@@H](C)O)C(=O)N[C@@H](C)C(=O)N[C@@H](CCC(=O)O)C(=O)N[C@@](C)(Cc1ccccc1)C(=O)N[C@@H](CC(C)C)C(=O)N[C@H](C(=O)N[C@@H](CCCNC(=N)N)C(=O)N[C@@H](CO)C(=O)N[C@@H](CO)C(=O)N[C@@H](CC(N)=O)C(=O)N(C)[C@@H](CC(N)=O)C(=O)N[C@@H](Cc1ccccc1)C(=O)NCC(=O)N1CCC[C@H]1C(=O)N[C@@H](CCCCNC(=O)CC[C@H](NC(=O)CC[C@H](NC(=O)CCCCCCCCCCCCCCCCCCC(=O)O)C(=O)O)C(=O)O)C(=O)N[C@@H](CC(C)C)C(=O)N1CCC[C@H]1C(=O)N1CCC[C@H]1C(=O)N[C@H](C(=O)N[C@@H](CCC(=O)O)C(=O)N[C@H](C(=O)NCC(=O)N[C@@H](CO)C(=O)N[C@@H](CC(N)=O)C(=O)N[C@H](C(=O)N[C@@H](Cc1ccc(O)cc1)C(N)=O)[C@@H](C)O)C(C)C)[C@@H](C)O)C(C)C` has a Tmax of 72 h (human, plasma; subcutaneous, 4 mg, single dose, healthy volunteers).
For `O=C(Nc1cnccc1-c1ccc([18F])nc1)c1ccnc(NC(=O)C2CC2)c1`, the SUV was 0.045 (FVB/NJ mice, both sexes, brain; intravenous, 40 min, median, no P-gp inhibitor).
For `CC(C)[C@H](NC(=O)[C@H](Cc1c[nH]c2ccccc12)NC(=O)[C@H](CCCNC(=N)N)NC(=O)[C@H](CCCNC(=N)N)NC(=O)[C@@H](NC(=O)[C@@H](NC(=O)[C@H](CCCNC(=N)N)NC(=O)[C@@H](NC(=O)[C@@H](NC(=O)[C@H](CCCNC(=N)N)NC(=O)[C@H](CCCNC(=N)N)NC(=O)[C@@H](NC(=O)[C@H](Cc1c[nH]c2ccccc12)NC(=O)[C@H](CCCNC(=N)N)NC(=O)[C@H](CCCNC(=N)N)NC(=O)[C@@H](NC(=O)[C@H](CCCNC(=N)N)NC(=O)[C@H](CCCNC(=N)N)NC(=O)[C@@H](NC(=O)[C@H](Cc1c[nH]c2ccccc12)NC(=O)[C@H](CCCNC(=N)N)NC(=O)[C@@H](N)CCCNC(=N)N)C(C)C)C(C)C)C(C)C)C(C)C)C(C)C)C(C)C)C(C)C)C(=O)N[C@@H](CCCNC(=N)N)C(=O)N[C@@H](CCCNC(=N)N)C(=O)O`, the specific gravity was 1.01 g/mL (dipstick; CD1 mouse, urine; intravenous, 15 mg/kg, 6 h, [14C]-labelled compound).
Under “log2 fold change”, `COC1CN([C@H]2CC[C@H]([C@@]3(C)Oc4c(Cl)cc(C(=O)NCc5c(SC)cc(C)[nH]c5=O)c(C)c4O3)CC2)C1` is recorded as 2.27 (RNA-seq, refers to: DENND2B; human, whole blood; dose not given, 24 h; relative to: pretreatment baseline).
`Cc1cc(-c2ccc(C(=O)[C@@H]3CCCC[C@H]3C(=O)Nc3cnn4c3C(=O)NCC4)cc2)[nH]n1`: “cumulative radioactivity recovery” 4.93% and 4.97% and 6.7% and 5.62% and 6.33% and 6.8% (human, urine; oral, 200 mg, 0-168 h; relative to: dose).
`Cn1c(-c2ccc(C=NOCc3ccc(-c4nc5cc(-c6ccccc6)ccn5c4Nc4ccc(C(=O)O)cc4)cc3)s2)nc2ccccc21` gave an inhibition of 85.4% (TDP1; enzyme activity, inhibitor; 100 µM).
The emission maximum of `CCCCN1C(=O)c2cccc3c(NCCCCCCCCN4CCOCC4)ccc(c23)C1=O` is reported as 526 nm (acetonitrile).
With `O=C(Nc1cnccc1-c1ccc([18F])cc1)c1ccnc(NC(=O)C2CC2)c1` the SUV was 21.1 (FVB/NJ mice (both sexes), urine; intravenous, dose not given, 120 min).
With `O=C(O)c1ccc(Nc2c(-c3ccc(CON=Cc4cc(Br)c(Br)o4)cc3)nc3cc(-c4ccccc4)ccn23)cc1` the inhibition was 91.9% (TDP1; enzyme activity, inhibitor; 100 µM, unpurified compound).
For `CCCCN1C(=O)c2cccc3c(NCCCCCCCCCCN4CCOCC4)ccc(c23)C1=O`, the emission maximum was 545 nm (ethylene glycol).
`O=C(NC1CCCC1)c1ccnc(N2Cc3cn(Cc4ccc(F)cc4)nc3C2)n1` gave a half-life of 0.117 h (metabolic stability; rat, liver microsomes).
`N#C[C@@H]1CC(F)(F)CN1C(=O)CNC(=O)c1ccnc2c(NC(=O)[C@@H](N)CCCCNC(=O)CCOCCOCCOCCOCCOCCOCCNC(=O)CN3CCN(CC(=O)[O-])CCN(CC(=O)[O-])CCN(CC(=O)[O-])CC3)cccc12.[177Lu+3]` gave a tissue uptake of 0.02 ± 0.03 %ID/g (mouse, U-87 MG tumour xenograft, brain; 24 h).
For `CN(C)C(=O)c1ccnc(N2Cc3cn(Cc4ccc(F)cc4F)nc3C2)n1`, the half-life was 7.9 h (metabolic stability; rat, liver microsomes).
The emission maximum of `CCCCN1C(=O)c2cccc3c(NCCN4CCOCC4)ccc(c23)C1=O` is reported as 531 nm (DMF).
With `O=c1c2ccccc2[se]n1CCCCCCn1[se]c2ccccc2c1=O` the solubility was 1050 ± 20 µg/mL (≈ 2200 µM) (shake-flask, RP-HPLC; propylene glycol; 24 h, 25 °C).
For `CCc1cnc(NC(=O)c2cc(S(=O)(=O)N3CCOCC3)ccc2N(C)C2CCCC2)s1`, “Basophils differential count” read 0% (mouse, blood; 10 mg/kg, 3 doses).
`CC(C)(c1cc(Br)c(O)c(Br)c1)c1cc(Br)c(O)c(Br)c1` — result for “dose fraction in skim milk”: 45.5% (whole cow milk; 20 nM nominal).
The IC50 of `C[N+](C)(C/C=C/CN1C(=O)c2ccccc2C1=O)CCCN1c2ccccc2CCc2ccc(Cl)cc21` is reported as 39.6 µM (Uncharacterized protein; enzyme activity, inhibitor, coupled colorimetric; with: E. coli pyrophosphatase coupling).
With `O=C1NC(=O)/C(=C/c2ccc3ncnc(N4CCC(F)CC4)c3n2)S1` the body weight was 18.5 g and 20.8 g and 21.6 g and 22.5 g (NSG mice; dose not given, day 4).
For `Cc1ncsc1-c1ccc(C(C)NC(=O)C2CC(O)CN2C(=O)C(NC(=O)CCCCCCCCCCN2CCCC(Nc3ncc(Cl)c(Nc4ccccc4S(=O)(=O)C(C)C)n3)C2)C(C)(C)C)cc1` (stereo not shown), “log2 fold change” read -1.25 (22Rv1; RNA-seq, refers to: LRFN3 mRNA; concentration not given; relative to: DMSO).
`COc1ccc(C2=Nn3c(nnc3C3CCCCC3)SC2)cc1OC` has an IC50 of 98.8 µM (Uncharacterized protein; inhibitor, coupled colorimetric; Trypanosoma brucei).
`C=CC(=O)Nc1cc(Nc2nccc(-c3c[nH]c4ccccc34)n2)c(OC)cc1N(C)CCN(C)C` gave a recovery of 73.3% (storage stability; human dried blood spots; 24 h, on ice, low QC level).
Under “adverse drug reactions”, `CC[C@H](C)[C@@H]1NC(=O)[C@H](Cc2ccc(O)cc2)NC(=O)CCCSC[C@@H](C(=O)N(CC(=O)N[C@@H](CC(C)C)C(=O)NCC(N)=O)Cc2ccc(F)cc2)NC(=O)[C@H](CC(N)=O)NC(=O)[C@H](CCC(N)=O)NC1=O` is recorded as 33% (human; intranasal, 15 µg single dose).
`CC(C)(O)c1ncc([S@](N)(=O)=NC(=O)Nc2c3c(cc4c2CCC4)CCC3)s1` — result for “subjects with TEAEs”: 100% (refers to: any system organ class; healthy human volunteers; oral, 600 mg single dose, spray-dried dispersion suspension).
For `COc1cccc(OC)c1-c1cc(C(=O)NC2(C(=O)O)C3CC4CC(C3)CC2C4)nn1-c1ccc(C(=O)N(C)CCOCCN(C)C(=O)[C@H](CCCCNC(=O)[C@H](CC(C)C)NC(=O)C2OC2C(=O)O)NC(=O)CN2CCN(CC(=O)[O-])CCN(CC(=O)[O-])CCN(CC(=O)[O-])CC2)cc1C(C)C.[177Lu+3]` (mixture of isomers), the tumour-to-pancreas ratio was 12 (mouse HT-29 xenograft; 4 h, biodistribution; relative to: tumour over pancreas).
The remaining compound of `C=CC(=O)Nc1cc(Nc2nccc(-c3cn(C)c4ccccc34)n2)c(OC)cc1N(C)CCNC` is reported as 76.6% (human, plasma; 72 h, on ice, high QC level).
`COc1ccc(-c2cc(=O)c3c(OC)c(O)c(OC)cc3o2)cc1` has a half-wave potential of -2.12 V vs Ag/AgCl (cyclic voltammetry; DMSO, 0.1 M Bu4NPF6; 25 °C).
Under “apparent volume of distribution”, `C=C[C@]1(C)C[C@@H](OC(=O)CSc2ccc(NC(=O)c3ccco3)cc2)[C@]2(C)[C@H](C)CC[C@]3(CCC(=O)[C@H]32)[C@@H](C)[C@@H]1O` is recorded as 8.88 L/kg (M. gallisepticum-infected chickens, plasma; intramuscular, 5 mg/kg single dose).
For `Cc1cnc2nc1Nc1cccc(c1)COC/C=C/COCc1cc(ccc1OCCN1CCOCC1)N2`, the body weight was 18.7 g and 19.2 g and 17.6 g and 18.8 g and 18.2 g (BALB/c mice, rhEPO-induced polycythemia; 100 mg/kg, day 5).
The AUC(0-last) of `C=C(NC(=O)c1csc(-c2nc3c(cc2O)-c2nc(cs2)C(=O)NC(C(C)O)C(=O)NC(=C(C)OC)c2nc(cs2)C(=O)NC2c4nc(cs4)C(=O)NC(COC(=O)c4c5c6c(cccc6n4O)COC(=O)C(OC4CC(C)(O)C(N(C)C)C(C)O4)C2OC5)c2nc-3cs2)n1)C(N)=O` (stereo not shown) is reported as 923 ng·h/mL (Sprague-Dawley rat, female, plasma; intravenous infusion, 2 mg/kg single dose).
`CNC(=O)C1CCCN(C(=O)C2CC3CCC2N3C(=O)[C@@H]2C[C@@H](O)CN2C(=O)NCc2cccc(Cl)c2F)C1` (mixture of isomers) has a microsomal CLint of 21.6 µL/min/mg (metabolic stability; monkey, liver microsomes).

Some of these lines once more:
The AUC(0-last) of `C=C(NC(=O)c1csc(-c2nc3c(cc2O)-c2nc(cs2)C(=O)NC(C(C)O)C(=O)NC(=C(C)OC)c2nc(cs2)C(=O)NC2c4nc(cs4)C(=O)NC(COC(=O)c4c5c6c(cccc6n4O)COC(=O)C(OC4CC(C)(O)C(N(C)C)C(C)O4)C2OC5)c2nc-3cs2)n1)C(N)=O` (stereo not shown) is reported as 923 ng·h/mL (Sprague-Dawley rat, female, plasma; intravenous infusion, 2 mg/kg single dose).
For `CCCCN1C(=O)c2cccc3c(NCCCCCCCCCCN4CCOCC4)ccc(c23)C1=O`, the emission maximum was 545 nm (ethylene glycol).
With `O=C1NC(=O)/C(=C/c2ccc3ncnc(N4CCC(F)CC4)c3n2)S1` the body weight was 18.5 g and 20.8 g and 21.6 g and 22.5 g (NSG mice; dose not given, day 4).
With `O=C(O)c1ccc(Nc2c(-c3ccc(CON=Cc4cc(Br)c(Br)o4)cc3)nc3cc(-c4ccccc4)ccn23)cc1` the inhibition was 91.9% (TDP1; enzyme activity, inhibitor; 100 µM, unpurified compound).
For `CCc1cnc(NC(=O)c2cc(S(=O)(=O)N3CCOCC3)ccc2N(C)C2CCCC2)s1`, “Basophils differential count” read 0% (mouse, blood; 10 mg/kg, 3 doses).
